Measurements gathered from unrelated publications.
± gives the spread as reported.

For `N=C(N)NCc1ccc(C(=O)NCCCC[C@H](NC(=O)CCCCCCC(=O)NCCCC[C@H](NC(=O)N[C@@H](CCC(=O)O)C(=O)O)C(=O)O)C(=O)O)cc1[131I]`, the tissue uptake was 0.24 ± 0.39 %ID/g (SCID mouse, PC-3 xenografts, liver; 21 h).
The tissue concentration of `CCCCCCCC(=O)NCCCC[C@H](NC(=O)[C@H](Cc1ccccc1)NC(=O)[C@@H](CCCNC(=N)N)NC(=O)[C@@H](N)Cc1ccc(O)cc1)C(N)=O` is reported as 631 ± 258 ng/g (CD-1 mouse, male, kidney; intravenous, 3 mg/kg, 180 min).
For `C=Cc1cc(O)cc2nc(-c3ccc(O)c([76Br])c3)oc12`, the tissue uptake was 0.13 ± 0.01 %ID/g (female C57BL/6 mouse, spleen; 1 h, low dose).
`COC(=O)C[C@](O)(CCCC(C)(C)OC(C)=O)C(=O)O[C@@H]1C(OC)=C[C@]23CCCN2CCc2cc4c(cc2[C@H]13)OCO4`: tissue concentration “not detected” (CD1 mouse, kidney; oral, 1 mg/kg, 8 h, below quantification limit 1.00 ng/mL).
`N=C(N)NCc1ccc(C(=O)NCCCC[C@H](NC(=O)N[C@@H](CCC(=O)O)C(=O)O)C(=O)O)cc1[131I]` has a tissue uptake of 170 %ID/g (SCID mouse, PC-3 xenografts, kidneys; 1 h).
`CN[C@](C)(C[18F])C(=O)O` gave a tissue uptake of 8.4 ± 1.2 %ID/g (SCID mouse U87 xenograft, liver; 15 min, post injection).
For `O=C(O)CC[C@H](NC(=O)O[C@@H](CCCCNC(=O)c1ccc([18F])cc1)C(=O)O)C(=O)O`, the tissue uptake was 11 ± 0.87 %ID/g (mouse, PC-3 PIP/flu xenografts, liver; 90 min).
For `Cn1cc(-c2cccc(CN3CCC4(CC3)COc3c4ccc4c3CN([C@H]3CCC(=O)NC3=O)C4=O)c2)cn1`, the tissue concentration was 7180 ng/g (mouse Crbn I391V, spleen; oral, 100 mg/kg, 6 h).
`N=C(N)NCc1ccc(C(=O)NCCCC[C@H](NC(=O)N[C@@H](CCC(=O)O)C(=O)O)C(=O)O)cc1[211At]` has a tissue uptake of 17.2 ± 10.7 %ID/g (SCID mouse, PC-3 xenografts, kidneys; 14 h).
With `C[S]1CC[S]2CC[P](CO)(CO)[99Tc+]12.[C-]#[O+].[C-]#[O+].[C-]#[O+]` the tissue uptake was 1 %ID (female CF-1 mouse, carcass; intravenous, 24 h).

Excerpt of the above:
For `O=C(O)CC[C@H](NC(=O)O[C@@H](CCCCNC(=O)c1ccc([18F])cc1)C(=O)O)C(=O)O`, the tissue uptake was 11 ± 0.87 %ID/g (mouse, PC-3 PIP/flu xenografts, liver; 90 min).
